Assay results of several laboratories.
Protocols differ between the studies behind these lines. Values joined by “and” are separate records of one study, mostly repeats; a detail may differ. ± marks the error that the study gave.
Cell line: HeLa

SMILES | test | setting | how to read | measurement | value
CC(C)n1ncc2c(C(=O)NCC3(C)CNC3)cc(C3CC3)nc21 | neutral red uptake | 9.2 µM, DMEM, 2% FBS | baseline: positive control | viability | 97.1%
Cc1cc(CCCOc2c(C)cc(-c3noc(C(F)(F)F)n3)cc2C)on1 |  | 72 h |  | CC50 | 42 µM
C[n+]1cc(NC(=O)c2ccc3ccc4ccc(C(=O)Nc5cc6ccccc6[n+](C)c5)nc4c3n2)cc2ccccc21 | resazurin | 5 days |  | CC50 | 53 ± 3 µM
CC(=O)N[C@@H](CS)C(=O)O | annexin V/PI | concentration not given, 48 h |  | viable cells | 90.4 ± 1.36%
C[C@H](CCC(=O)NCCS(=O)(=O)O)[C@H]1CC[C@H]2[C@@H]3[C@H](O)C[C@@H]4C[C@H](O)CC[C@]4(C)[C@H]3C[C@H](O)[C@]12C |  | 50 µM, 24 h |  | cytotoxicity | not toxic
Cc1cnc(CNC(=O)c2c(=O)c3ccc(N4CCCN(C)CC4)nc3n3c2sc2ccccc23)cn1 | cytotoxicity, resazurin | 5 days |  | CC50 | < 0.2 µM
Nc1nc(-c2ccccc2)nc2[nH]nc(Nc3ccc(C(F)(F)F)cc3)c12 |  | 72 h |  | CC50 | > 540 µM
COc1cc(/C=C/C=C2\SC(=S)NC2=O)cc(OC)c1O | CellTiter-Glo | 10 µM, 24 h, unit not given | baseline: untreated | viability | 0.985 and 0.978
CC[C@H](C)[C@H](NC(=O)[C@H](CC(=O)O)NC(=O)[C@H](CCC(=O)O)NC(=O)[C@@H](N)CC(N)=O)C(=O)N[C@@H](CC(=O)O)C(=O)N[C@@H](CCC(N)=O)C(=O)N[C@@H](CCSC)C(=O)N[C@@H](Cc1ccccc1)C(=O)N[C@@H](CO)C(=O)N[C@H](C(=O)N[C@@H](CC(C)C)C(=O)N[C@@H](CC(C)C)C(=O)NCC(=O)N[C@@H](CCC(=O)O)C(=O)N[C@@]1(C)CCCC=CCCC[C@@](C)(C(=O)N[C@@H](CCC(N)=O)C(=O)N[C@@H](CO)C(=O)O)NC(=O)[C@H](CC(C)C)NC(=O)[C@H](CC(C)C)NC(=O)[C@H](CC(=O)O)NC1=O)[C@@H](C)O |  | 40 µM, 24, 48, 72 h |  | cell viability | not toxic
CN1CCC(c2c(O)cc(O)c3c(=O)cc(-c4ccccc4)oc23)C(O)C1 (stereo not drawn) |  |  |  | CC50 | 0.19 µM
CCC(=CCc1c(O)cc2c(c1O)C(=O)C[C@H](c1ccccc1O)O2)CC | cytotoxicity, MTT | 48 h, added: S9 fraction |  | log IC50 | 1.57 log µM
CNC(=O)c1cc(Oc2ccc(NC(=O)Nc3ccc(Cl)c(C(F)(F)F)c3)cc2)ccn1 | MTT | 24 h |  | CC50 | 9.52 µM

Excerpt of the above:
SMILES | test | setting | how to read | measurement | value
CN1CCC(c2c(O)cc(O)c3c(=O)cc(-c4ccccc4)oc23)C(O)C1 (stereo not drawn) |  |  |  | CC50 | 0.19 µM
C[n+]1cc(NC(=O)c2ccc3ccc4ccc(C(=O)Nc5cc6ccccc6[n+](C)c5)nc4c3n2)cc2ccccc21 | resazurin | 5 days |  | CC50 | 53 ± 3 µM
